Assay results collected from several papers.
± marks the error that the study gave.
Genome polyprotein NS2B-NS3 protease: Genome polyprotein, NS2B-NS3 protease (dengue virus type 2, UniProt P29990)
Chain of UniProt Q96RI0 (whole entry, looked up): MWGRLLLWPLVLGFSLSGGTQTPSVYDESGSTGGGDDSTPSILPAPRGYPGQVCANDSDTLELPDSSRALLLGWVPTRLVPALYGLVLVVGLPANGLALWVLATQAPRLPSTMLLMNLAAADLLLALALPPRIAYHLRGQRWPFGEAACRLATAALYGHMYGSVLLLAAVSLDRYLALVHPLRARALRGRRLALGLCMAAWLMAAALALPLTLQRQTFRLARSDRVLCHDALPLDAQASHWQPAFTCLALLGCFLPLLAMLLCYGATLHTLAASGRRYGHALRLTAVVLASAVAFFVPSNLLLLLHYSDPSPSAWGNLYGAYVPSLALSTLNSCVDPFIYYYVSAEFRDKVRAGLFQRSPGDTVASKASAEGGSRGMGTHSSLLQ
Chain of UniProt Q99873 (whole entry, looked up): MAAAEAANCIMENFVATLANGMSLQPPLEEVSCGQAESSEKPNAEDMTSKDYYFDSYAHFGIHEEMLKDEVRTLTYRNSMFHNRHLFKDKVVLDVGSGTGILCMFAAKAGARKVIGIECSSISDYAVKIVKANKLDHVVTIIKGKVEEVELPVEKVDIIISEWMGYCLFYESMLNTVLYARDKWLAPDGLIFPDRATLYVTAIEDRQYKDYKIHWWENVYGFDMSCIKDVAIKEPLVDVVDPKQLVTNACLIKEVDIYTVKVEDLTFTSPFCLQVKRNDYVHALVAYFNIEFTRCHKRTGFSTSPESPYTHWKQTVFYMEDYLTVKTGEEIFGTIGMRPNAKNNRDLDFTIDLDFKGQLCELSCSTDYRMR
Chain of UniProt P32241 (whole entry, looked up): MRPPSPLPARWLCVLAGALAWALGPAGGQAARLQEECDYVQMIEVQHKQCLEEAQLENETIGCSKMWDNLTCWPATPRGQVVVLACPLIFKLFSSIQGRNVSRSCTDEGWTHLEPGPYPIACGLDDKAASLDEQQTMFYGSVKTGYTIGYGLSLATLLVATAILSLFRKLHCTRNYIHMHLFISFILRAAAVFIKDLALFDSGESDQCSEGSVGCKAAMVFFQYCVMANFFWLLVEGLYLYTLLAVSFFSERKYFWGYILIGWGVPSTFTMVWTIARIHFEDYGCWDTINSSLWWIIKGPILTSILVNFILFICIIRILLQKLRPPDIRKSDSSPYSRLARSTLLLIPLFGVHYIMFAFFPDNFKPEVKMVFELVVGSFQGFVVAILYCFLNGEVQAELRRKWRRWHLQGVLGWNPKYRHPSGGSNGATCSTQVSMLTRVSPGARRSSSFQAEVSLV
Chain of UniProt P21452 (whole entry, looked up): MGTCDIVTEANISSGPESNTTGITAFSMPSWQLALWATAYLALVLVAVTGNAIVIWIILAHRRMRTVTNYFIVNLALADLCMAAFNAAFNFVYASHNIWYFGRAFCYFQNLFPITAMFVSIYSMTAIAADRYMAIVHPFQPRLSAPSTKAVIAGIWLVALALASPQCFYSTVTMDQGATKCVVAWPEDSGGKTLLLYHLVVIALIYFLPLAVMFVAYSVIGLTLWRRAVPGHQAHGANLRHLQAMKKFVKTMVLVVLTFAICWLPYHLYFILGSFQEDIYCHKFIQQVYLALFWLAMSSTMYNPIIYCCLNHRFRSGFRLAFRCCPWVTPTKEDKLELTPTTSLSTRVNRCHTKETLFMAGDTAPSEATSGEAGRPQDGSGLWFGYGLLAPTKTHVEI
Chain of UniProt Q6P2P2 (whole entry, looked up): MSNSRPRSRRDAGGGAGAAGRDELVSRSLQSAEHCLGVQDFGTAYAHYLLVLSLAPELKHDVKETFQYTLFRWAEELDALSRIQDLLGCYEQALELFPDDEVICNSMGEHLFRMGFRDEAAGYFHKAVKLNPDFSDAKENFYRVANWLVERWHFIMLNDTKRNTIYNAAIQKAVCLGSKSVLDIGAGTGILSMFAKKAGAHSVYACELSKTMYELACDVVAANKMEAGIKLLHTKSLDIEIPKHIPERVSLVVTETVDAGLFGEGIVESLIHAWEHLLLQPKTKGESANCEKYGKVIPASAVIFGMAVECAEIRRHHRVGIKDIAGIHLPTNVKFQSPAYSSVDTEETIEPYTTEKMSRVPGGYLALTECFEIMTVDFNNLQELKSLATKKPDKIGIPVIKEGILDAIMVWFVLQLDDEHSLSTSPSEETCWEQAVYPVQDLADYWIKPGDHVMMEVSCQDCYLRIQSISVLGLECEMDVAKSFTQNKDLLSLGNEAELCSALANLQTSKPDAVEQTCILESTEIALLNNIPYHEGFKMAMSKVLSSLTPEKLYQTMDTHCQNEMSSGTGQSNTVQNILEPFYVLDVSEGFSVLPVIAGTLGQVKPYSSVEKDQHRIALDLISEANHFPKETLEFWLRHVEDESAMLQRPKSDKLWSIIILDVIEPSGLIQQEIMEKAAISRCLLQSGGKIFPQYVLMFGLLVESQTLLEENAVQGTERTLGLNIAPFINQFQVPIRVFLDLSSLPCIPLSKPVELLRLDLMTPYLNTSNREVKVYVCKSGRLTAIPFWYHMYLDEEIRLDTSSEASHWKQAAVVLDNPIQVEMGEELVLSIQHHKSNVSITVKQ

Structure (SMILES)	tested on	test	system	setting	scale	quantity	value
O=C1c2sc(-c3ccc(N4CCC(F)C4)nc3F)nc2CCN1c1cccnc1 (centres unmarked)	NMDA receptor	radioligand binding		1 µM, with: antagonist radioligand		inhibition	8%
N#Cc1cc(NC(=O)c2cc(-c3ccccc3)n(-c3ccccc3)n2)ccc1N1CCCC1	Genome polyprotein NS2B-NS3 protease	reporter gene	HeLa	12.5 µM		inhibition	24 ± 13%
CCCCCCCCCCCCCCCC(=O)N[C@@H](CCCCN)C(=O)N[C@@H](CCCCN)C(=O)N[C@@H](CO)C(=O)N[C@@H](CCCNC(=N)N)C(=O)N[C@@H](C)C(=O)N[C@@H](CC(C)C)C(=O)N[C@@H](Cc1ccccc1)C(N)=O	F2RL3 (Homo sapiens, UniProt Q96RI0)	platelet aggregation, ex vivo LTA	human	0.5 mg/kg, 14 days, with: AYPGKF 160 µM	relative to: baseline	inhibition	26%
C[Si](C)(C)C[C@H](CN)CC(=O)O	VIPR1 (Homo sapiens, UniProt P32241)	ligand displacement, radioligand		250 µM		inhibition	6%
CN(C)C/C=C/C(=O)Nc1ccc2nc(NCCCCCN(C)C)nc(NCCCCCCN(C)C)c2c1	PRMT1 (Homo sapiens, UniProt Q99873)	enzyme activity, inhibitor, radiometric		10 µM		inhibition	93%
Cc1ncsc1-c1ccc(C(C)NC(=O)C2CC(O)CN2C(=O)C(NC(=O)CCCCCCCCCCN2CCCC(Nc3ncc(Cl)c(Nc4ccccc4S(=O)(=O)C(C)C)n3)C2)C(C)(C)C)cc1 (centres unmarked)	22Rv1	RNA-seq, measured: LCMT2 mRNA		concentration not given	relative to: DMSO	log2 fold change	-1.89
Cc1ccc(-n2nc(C(N)=O)cc2-c2ccc(CC(C)C)cc2)cc1	Genome polyprotein NS2B-NS3 protease	enzyme activity, fluorogenic AMC substrate		50 µM		inhibition	64%
COC1CN([C@H]2CC[C@H]([C@@]3(C)Oc4c(Cl)cc(C(=O)NCc5c(SC)cc(C)[nH]c5=O)c(C)c4O3)CC2)C1		RNA-seq, measured: ANP32B	human, whole blood	dose not given, 24 h	relative to: pretreatment baseline	log2 fold change	1.59
O=C1c2sc(-c3ccc(N4CCC(CO)CC4)nc3F)nc2CCN1c1cccnc1	TACR2 (Homo sapiens, UniProt P21452)	ligand displacement, radioligand		1 µM		inhibition	7%
Cc1cc(C(=O)Nc2cccc(C(N)=O)c2)n(Cc2ccccc2)n1	Genome polyprotein NS2B-NS3 protease	reporter gene	HeLa	12.5 µM		inhibition	36%
C/C=C/C(=O)Nc1ccc2nc(NCCCCCN(C)C)nc(NCCCCCCN(C)C)c2c1	PRMT9 (Homo sapiens, UniProt Q6P2P2)	enzyme activity, inhibitor, radiometric		50 µM		inhibition	70%

Excerpt of the above:
Structure (SMILES)	tested on	test	system	setting	scale	quantity	value
O=C1c2sc(-c3ccc(N4CCC(CO)CC4)nc3F)nc2CCN1c1cccnc1	TACR2 (Homo sapiens, UniProt P21452)	ligand displacement, radioligand		1 µM		inhibition	7%
Cc1cc(C(=O)Nc2cccc(C(N)=O)c2)n(Cc2ccccc2)n1	Genome polyprotein NS2B-NS3 protease	reporter gene	HeLa	12.5 µM		inhibition	36%
